Measurements gathered from unrelated publications.
± marks the error that the study gave.
Technique: steady-state kinetics
B1: Rtr1 residues 1-213 (Saccharomyces cerevisiae, UniProt P40084); chain MATIEDIKETALIPFQKHRQLSMHEAEVITLEIIGLLCDSECKDEKTLKYLGRFLTPDMYQDLVDERNLNKRCGYPLCGKSPERIRDPFSMNDTTKKFLLENNPYAYLSHYCSKFHFRCSQFYQVQLSDEALFARTGVHLFEDPEQDKHDIDFKVTLFEELLREKASEEDIKSLISGLKKLGLNPDSGTTEKDDTELEDDLSKWLAQIKIVEN
B2: 3-hydroxypropionyl-CoA dehydratase (Metallosphaera sedula, UniProt A4YI89); chain MEFETIETKKEGNLFWITLNRPDKLNALNAKLLEELDRAVSQAESDPEIRVIIITGKGKAFCAGADITQFNQLTPAEAWKFSKKGREIMDKIEALSKPTIAMINGYALGGGLELALACDIRIAAEEAQLGLPEINLGIYPGYGGTQRLTRVIGKGRALEMMMTGDRIPGKDAEKYGLVNRVVPLANLEQETRKLAEKIAKKSPISLALIKEVVNRGLDSPLLSGLALESVGWGVVFSTEDKKEGVSAFLEKREPTFKGK
B3: asnB E349A (Escherichia coli, UniProt P22106); chain CSIFGVFDIKTDAVELRKKALELSRLMRHRGPDWSGIYASDNAILAHERLSIVDVNAGAQPLYNQQKTHVLAVNGEIYNHQALRAEYGDRYQFQTGSDCEVILALYQEKGPEFLDDLQGMFAFALYDSEKDAYLIGRDHLGIIPLYMGYDEHGQLYVASEMKALVPVCRTIKEFPAGSYLWSQDGEIRSYYHRDWFDYDAVKDNVTDKNELRQALEDSVKSHLMSDVPYGVLLSGGLDSSIISAITKKYAARRVEDQERSEAWWPQLHSFAVGLPGSPDLKAAQEVANHLGTVHHEIHFTVQEGLDAIRDVIYHIETYDVTTIRASTPMYLMSRKIKAMGIKMVLSGAGSDEVFGGYLYFHKAPNAKELHEETVRKLLALHMYDCARANKAMSAWGVEARVPFLDKKFLDVAMRINPQDKMCGNGKMEKHILRECFEAYLPASVAWRQKEQFSDGVGYSWIDTLKEVAAQQVSDQQLETARFRFPYNTPTSKEAYLYREIFEELFPLPSAAECVPGGPSVACSSAKAIEWDEAFKKMDDPSGRAVGVHQSAYK
B4: msrA (Clostridium oremlandii, UniProt A8MI53); chain MDTNQKLSIAVFALGUFWGPDAQFGSIKGVVSTRVGYAGGTTNNPSYYNLGDHSESIEIQYDANVITYGELLNIFWNLHNPVYETTNRQYMSRIFYLDDGQKSEALEMKRQIEAANGEKIYTEIVPLENFYLAEGYHQKYYLQNTTKLYQTLKAIYGGFGNLVRSTLAARMNGYIAGNLSIASLKEEMDLVELPEDQYEKVLSIVEEIK
B5: Tcur_2987 Y332F (Thermomonospora curvata, UniProt D1A807); chain ACSEERAAGARPSATQTTGTATEPFHGPHQAGIATPPQAHAVFLGLDLRKGTGRKELGRLMRLLTDDARRLTQGRPALADPEPDLAPLPSRLTFTFGFGPGLFKAAGLEKQRPEGLRPLPPFKVDRLEDRWSGGDLLVQICCDDPITLAHALRMTVKDARAFTRVRWVQRGFRRSPGVQSSGATQRNLMGQLDGTVNPVPGTADFDQAVWVQDGPEWLRGGTTLVLRRIRMELEKWDEADPAGKEFAVGRRLTSGAPLTGRHEHDEPDFDAVDSAGFPVIAENAHIRLAHVDSPRLRMLRRPYNFDEGLTADGRSDAGLLFAAYQADIDRQFIPVQRRLDEGGDLLNLWTTPIGSAVFAIPPGCDENGWIGQGLLG
B6: cyc1 A236G (Streptomyces coelicolor, UniProt Q9K499); chain MHAFPHGTTATPTAIAVPPSLRLPVIEAAFPRQLHPYWPKLQETTRTWLLEKRLMPADKVEEYADGLCYTDLMAGYYLGAPDEVLQAIADYSAWFFVWDDRHDRDIVHGRAGAWRRLRGLLHTALDSPGDHLHHEDTLVAGFADSVRRLYAFLPATWNARFARHFHTVIEAYDREFHNRTRGIVPGVEEYLELRRLTFAHWIWTDLLEPSSGCELPDAVRKHPAYRRAALLSQEFGAWYNDLCSLPKEIAGDEVHNLGISLITHHSLTLEEAIGEVRRRVEECITEFLAVERDALRFADELADGTVRGKELSGAVRANVGNMRNWFSSVYWFHHESGRYMVDSWDDRSTPPYVNNEAAGEK
B7: protein Y93N (Thermus thermophilus, UniProt Q5SKR5); chain MSAPKPFVIGIAGGTASGKTTLAQALARTLGERVALLPMDHYYKDLGHLPLEERLRVNYDHPDAFDLALYLEHAQALLRGLPVEMPVYDFRANTRSPRRTPVRPAPVVILEGILVLYPKELRDLMDLKVFVDADADERFIRRLKRDVLERGRSLEGVVAQYLEQVKPMHLHFVEPTKRYADVIVPRGGQNPVALEMLAAKALARLARMGAA
B8: alanine racemase H166F (Geobacillus stearothermophilus, UniProt P10724); chain MNDFHRDTWAEVDLDAIYDNVENLRRLLPDDTHIMAVVKANAYGHGDVQVARTALEAGASRLAVAFLDEALALREKGIEAPILVLGASRPADAALAAQQRIALTVFRSDWLEEASALYSGPFPIHFHLKMDTGMGRLGVKDEEETKRIVALIERHPHFVLEGLYTFFATADEVNTDYFSYQYTRFLHMLEWLPSRPPLVHCANSAASLRFPDRTFNMVRFGIAMYGLAPSPGIKPLLPYPLKEAFSLHSRLVHVKKLQPGEKVSYGATYTAQTEEWIGTIPIGYADGWLRRLQHFHVLVDGQKAPIVGRICMDQCMIRLPGPLPVGTKVTLIGRQGDEVISIDDVARHLETINYEVPCTISYRVPRIFFRHKRIMEVRNAIGRGESSA
B9: Pck1 A467G (Rattus norvegicus, UniProt P07379); chain MPPQLHNGLDFSAKVIQGSLDSLPQEVRKFVEGNAQLCQPEYIHICDGSEEEYGRLLAHMQEEGVIRKLKKYDNCWLALTDPRDVARIESKTVIITQEQRDTVPIPKSGQSQLGRWMSEEDFEKAFNARFPGCMKGRTMYVIPFSMGPLGSPLAKIGIELTDSPYVVASMRIMTRMGTSVLEALGDGEFIKCLHSVGCPLPLKKPLVNNWACNPELTLIAHLPDRREIISFGSGYGGNSLLGKKCFALRIASRLAKEEGWLAEHMLILGITNPEGKKKYLAAAFPSACGKTNLAMMNPTLPGWKVECVGDDIAWMKFDAQGNLRAINPENGFFGVAPGTSVKTNPNAIKTIQKNTIFTNVAETSDGGVYWEGIDEPLAPGVTITSWKNKEWRPQDEEPCAHPNSRFCTPASQCPIIDPAWESPEGVPIEGIIFGGRRPAGVPLVYEALSWQHGVFVGAAMRSEATAGAEHKGKVIMHDPFAMRPFFGYNFGKYLAHWLSMAHRPAAKLPKIFHVNWFRKDKNGKFLWPGFGENSRVLEWMFGRIEGEDSAKLTPIGYVPKEDALNLKGLGDVNVEELFGISKEFWEKEVEEIDKYLEDQVNADLPYEIERELRALKQRISQM
B10: putA E1012A (Rhodobacter capsulatus, UniProt D5AN87); chain MTDLSALGPKAKFAPEAEVLQALVAQAALPQPQLDRIAARGADLVARIRAEAKPSLMEHFLAQYGLSTREGVALMCLAEAMLRVPDTATIDALIEDKIAPSDWGKHLGTAASSLVNASTWALMLTGKVLDDGAGGIAGTLRGAMRRLGEPVIRAAVGQAMREMGRQFVLGETIEKALERAEKREAEGYTFSYDMLGEAALTAADAERYRLAYAQAITAIGKAATRGSIAANPGISIKLSALHPRYEVAQEARVMAELVPVVRDLARAAARAGIALHIDAEEQDRLALSLRVMAAVIADPETAGWEGFGAVVQAYGKRAGAAIDALAAMARAAGRRINIRLVKGAYWDAEMKRAQVEGHPGFPLFTSKTGTDVAYICLAAKLFGLNDCIYPQFATHNAHTVAAVLEMAAGRPFEFQRLHGMGARLHDIVLRETGGRCRIYAPVGAHRDLLAYLVRRLLENGANSSFVNQIVNESVPPAEVAACPFAALPTARAPRGLLAPADLFGAGRVNAQGFDLSDPEVLARIEAARDVTLPDAAPIVAGPVSGTLRPVRNPATGAVVAQVTEADAATVALALDAAQVWSAPAATRAAVLCRAADLYEENFGPIFAALAQEAGKTLGDAVSELREAVDFLRYYAAEGAADTRPPRGAVVAISPWNFPLAIFTGQVAAALMAGNAVLAKPAEQTPIIAALAVRLLHQAGVPETALQLLPGDGPTVGAALTRDPRVAGVVFTGSTETAQIIARAMAAHLAPGTPLIAETGGLNAMVVDSTALPEQAVRDVVASAFRSAGQRCSALRCLYVQDDIAPHLIGMLKGAMEELVSGDPARLSTDVGPVIDAEAKAGIETYLAANKARILHRSTAPEGGHFVAPALLQVGGIADLEREIFGPVLHLATFAAEDLPAVIAAINARGYGLTFGLHSRIDARVETVAETIRAGNIYVNRNQIGAVVGSQPFGGEGLSGTGPKAGGPLYLNRFYAPEPVVAVGGWTEAATPILPEARETQLDEIFLPGPTGALNRLTRHQRGPILCLGPGAEAASAQAAAVVALGGQAVQASGAVSPKALETLTPLAGVLWWGAAEMGRAYAQALAVRPGPLVPLITAKPDLAHVAHERHLCVDTTAAGGNAALLAG
Sequence of UniProt A8NCK5 (whole entry, looked up): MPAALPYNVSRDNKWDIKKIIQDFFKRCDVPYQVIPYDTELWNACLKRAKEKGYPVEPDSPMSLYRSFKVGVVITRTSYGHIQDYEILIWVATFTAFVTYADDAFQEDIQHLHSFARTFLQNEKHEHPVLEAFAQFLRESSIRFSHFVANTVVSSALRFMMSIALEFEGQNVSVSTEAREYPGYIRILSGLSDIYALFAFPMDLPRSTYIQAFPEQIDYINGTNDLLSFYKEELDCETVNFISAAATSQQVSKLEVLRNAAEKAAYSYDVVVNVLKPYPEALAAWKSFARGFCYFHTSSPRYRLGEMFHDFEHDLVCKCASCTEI
Sequence of UniProt P42982 (whole entry, looked up): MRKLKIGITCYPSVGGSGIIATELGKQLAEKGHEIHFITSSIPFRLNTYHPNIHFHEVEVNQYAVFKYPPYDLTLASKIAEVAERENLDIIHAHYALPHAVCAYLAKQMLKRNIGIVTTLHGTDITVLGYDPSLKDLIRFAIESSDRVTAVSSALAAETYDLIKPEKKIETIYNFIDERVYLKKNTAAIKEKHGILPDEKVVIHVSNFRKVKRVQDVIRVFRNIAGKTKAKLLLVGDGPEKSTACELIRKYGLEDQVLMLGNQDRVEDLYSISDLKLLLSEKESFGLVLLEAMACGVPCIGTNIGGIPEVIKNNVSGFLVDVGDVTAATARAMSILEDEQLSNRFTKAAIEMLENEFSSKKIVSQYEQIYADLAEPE
Sequence of UniProt Q7L266 (whole entry, looked up): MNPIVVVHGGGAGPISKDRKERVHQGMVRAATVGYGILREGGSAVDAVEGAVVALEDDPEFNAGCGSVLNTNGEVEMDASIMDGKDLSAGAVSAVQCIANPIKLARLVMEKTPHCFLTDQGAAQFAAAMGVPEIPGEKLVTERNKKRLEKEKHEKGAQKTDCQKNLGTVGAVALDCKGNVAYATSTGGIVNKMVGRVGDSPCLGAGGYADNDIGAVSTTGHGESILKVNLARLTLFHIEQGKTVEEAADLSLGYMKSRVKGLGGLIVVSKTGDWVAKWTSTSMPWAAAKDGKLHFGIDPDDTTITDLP
Sequence of UniProt Q9UBT6 (whole entry, looked up): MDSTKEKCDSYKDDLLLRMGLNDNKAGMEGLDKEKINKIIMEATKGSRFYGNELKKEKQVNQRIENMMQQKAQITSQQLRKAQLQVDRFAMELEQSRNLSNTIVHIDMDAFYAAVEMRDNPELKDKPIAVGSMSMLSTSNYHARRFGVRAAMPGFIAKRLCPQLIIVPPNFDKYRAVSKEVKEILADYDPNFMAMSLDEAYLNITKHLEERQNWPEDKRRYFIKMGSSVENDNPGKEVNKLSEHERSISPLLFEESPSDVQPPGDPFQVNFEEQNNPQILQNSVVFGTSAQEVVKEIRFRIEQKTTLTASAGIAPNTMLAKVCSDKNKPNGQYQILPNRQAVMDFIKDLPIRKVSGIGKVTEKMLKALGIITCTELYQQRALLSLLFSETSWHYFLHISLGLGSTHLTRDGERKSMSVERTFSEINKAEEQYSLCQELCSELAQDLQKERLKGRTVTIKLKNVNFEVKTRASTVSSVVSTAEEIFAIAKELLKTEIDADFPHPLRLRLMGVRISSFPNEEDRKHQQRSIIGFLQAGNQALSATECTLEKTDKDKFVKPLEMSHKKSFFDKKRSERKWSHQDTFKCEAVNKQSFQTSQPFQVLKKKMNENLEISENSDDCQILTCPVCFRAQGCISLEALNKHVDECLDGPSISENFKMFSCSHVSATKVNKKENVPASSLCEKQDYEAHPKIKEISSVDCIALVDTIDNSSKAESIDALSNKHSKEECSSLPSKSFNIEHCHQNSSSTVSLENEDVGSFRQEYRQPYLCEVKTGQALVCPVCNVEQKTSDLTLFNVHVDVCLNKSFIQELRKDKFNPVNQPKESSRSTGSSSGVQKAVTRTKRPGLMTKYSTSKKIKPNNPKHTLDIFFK
Sequence of UniProt P07914 (whole entry, looked up): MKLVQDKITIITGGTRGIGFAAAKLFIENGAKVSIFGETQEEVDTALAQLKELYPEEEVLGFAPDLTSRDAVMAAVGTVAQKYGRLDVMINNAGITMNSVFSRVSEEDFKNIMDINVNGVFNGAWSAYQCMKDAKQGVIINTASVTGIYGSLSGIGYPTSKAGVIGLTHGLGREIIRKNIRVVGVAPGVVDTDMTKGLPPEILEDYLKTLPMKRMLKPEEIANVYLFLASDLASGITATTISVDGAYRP

| Substance | substrate | pH | temperature | setting | added | kcat/Km |
| --- | --- | --- | --- | --- | --- | --- |
| POLK (Homo sapiens, UniProt Q9UBT6) | Cc1cn([C@H]2C[C@H](O)[C@@H](COP(=O)(O)OP(=O)(O)OP(=O)(O)O)O2)c(=O)[nH]c1=O | pH 8 | 37 °C | misinsertion opposite dT | Mg2+ | 16.7 M⁻¹ s⁻¹ |
| B1 (Rtr1 residues 1-213) | Cc1cc(=O)oc2c(F)c(OP(=O)(O)O)c(F)cc12 | pH 6 | – | NaCl 150 mM, no metal added | – | 1.83e+07 M⁻¹ s⁻¹ |
| BaiA1 (Clostridium scindens, UniProt P07914) | C[C@H](CCC(=O)SCCNC(=O)CCNC(=O)[C@H](O)C(C)(C)COP(=O)(O)OP(=O)(O)OC[C@H]1O[C@@H](n2cnc3c(N)ncnc32)[C@H](O)[C@@H]1OP(=O)(O)O)[C@H]1CC[C@H]2[C@@H]3CC[C@@H]4C[C@H](O)CC[C@]4(C)[C@H]3C[C@H](O)[C@]12C | pH 8.7 | 37 °C | – | NAD+ | 54200 M⁻¹ s⁻¹ |
| Cop6 (Coprinopsis cinerea, UniProt A8NCK5) | CC(C)=CCC/C(C)=C/COP(=O)(O)OP(=O)(O)O | pH 8 | 30 °C | – | MgCl2 10 mM | 24000 M⁻¹ s⁻¹ |
| B2 | CC(C)(COP(=O)(O)OP(=O)(O)OC[C@H]1O[C@@H](n2cnc3c(N)ncnc32)[C@H](O)[C@@H]1OP(=O)(O)O)[C@@H](O)C(=O)NCCC(=O)NCCSC(=O)CCO | pH 6.5 | 65 °C | substrate made in situ | ATP, CoA, NADPH | 5.12e+06 M⁻¹ s⁻¹ |
| enzyme (Vitis vinifera, UniProt F6H697) | O=C(O)Cc1c[nH]c2ccccc12 | pH 8.6 | 25 °C | – | – | 22800 M⁻¹ s⁻¹ |
| B3 (asnB E349A) | NC(=O)CC[C@H](N)C(=O)O | pH 8 | 37 °C | 100 mM NaCl, glutaminase site | MgCl2; no ATP | 1100 M⁻¹ s⁻¹ |
| B4 (msrA) | CN(C)c1ccc(N=Nc2ccc(S(=O)(=O)N[C@@H](CC[S@+](C)[O-])C(=O)O)cc2)cc1 | pH 7.5 | 37 °C | 50 mM NaCl, Km above tested range | 20 mM DTT reductant | 8240 M⁻¹ s⁻¹ |
| Ptb (Listeria monocytogenes, UniProt Q8Y7B7) | CC(C)C(=O)SCCNC(=O)CCNC(=O)[C@H](O)C(C)(C)COP(=O)(O)OP(=O)(O)OC[C@H]1O[C@@H](n2cnc3c(N)ncnc32)[C@H](O)[C@@H]1OP(=O)(O)O | pH 7.5 | 25 °C | apparent | – | 2.14e+07 M⁻¹ s⁻¹ |
| ASRGL1 (Homo sapiens, UniProt Q7L266) | C[C@H](NC(=O)C[C@H](N)C(=O)O)C(=O)O | pH 7.4 | 37 °C | NaCl 100 mM | – | 6000 ± 800 M⁻¹ s⁻¹ |
| B5 (Tcur_2987 Y332F) | Nc1c(S(=O)(=O)O)cc(Nc2cccc(S(=O)(=O)CCOS(=O)(=O)O)c2)c2c1C(=O)c1ccccc1C2=O | pH 3 | – | sigmoidal kinetics | H2O2 1 mM | 2.5e+06 M⁻¹ s⁻¹ |
| B6 (cyc1 A236G) | CC(C)=CCC/C(C)=C/CC/C(C)=C/CO[P@@](=O)(O)OP(=O)(O)O | pH 6.5 | 30 °C | – | MgCl2 10 mM | 150000 ± 20000 M⁻¹ s⁻¹ |
| B7 (protein Y93N) | Nc1ccn([C@@H]2O[C@H](CO)[C@@H](O)[C@H]2O)c(=O)n1 | pH 7.2 | 25 °C | KCl 100 mM | ATP 100–200 µM | 8700 M⁻¹ s⁻¹ |
| B8 (alanine racemase H166F) | C[C@@H](N)C(=O)O | pH 9 | room temperature | – | NAD+ 10 mM | 1000 M⁻¹ s⁻¹ |
| CoA persulfide reductase CDR-RHD (Enterococcus faecalis, UniProt A0ACD6TF65) | CC(C)(COP(=O)(O)OP(=O)(O)OC[C@H]1O[C@@H](n2cnc3c(N)ncnc32)[C@H](O)[C@@H]1OP(=O)(O)O)[C@@H](O)C(=O)NCCC(=O)NCCSS | pH 8 | 25 °C | NaCl 200 mM | FAD 100 nM, NADH 100 µM | 44000 ± 10000 M⁻¹ s⁻¹ |
| B9 (Pck1 A467G) | Nc1nc2c(ncn2[C@@H]2O[C@H](COP(=O)(O)OP(=O)(O)O)[C@@H](O)[C@H]2O)c(=O)[nH]1 | pH 7.5 | 25 °C | – | – | 14000 M⁻¹ s⁻¹ |
| B10 (putA E1012A) | O=C(O)[C@@H]1CCCN1 | pH 8 | 23 °C | – | – | 1300 ± 270 M⁻¹ s⁻¹ |
| BshA (Bacillus subtilis, UniProt P42982) | CC(=O)N[C@H]1[C@@H](OP(=O)(O)OP(=O)(O)OC[C@H]2O[C@@H](n3ccc(=O)[nH]c3=O)[C@H](O)[C@@H]2O)O[C@H](CO)[C@@H](O)[C@@H]1O | pH 7.5 | 21 °C | – | malate 0–25 mM | 16000 M⁻¹ s⁻¹ |
